Experimental data from different studies.
A part holds a random share of what one study measured.
Sequence of UniProt P49336 (whole entry, looked up): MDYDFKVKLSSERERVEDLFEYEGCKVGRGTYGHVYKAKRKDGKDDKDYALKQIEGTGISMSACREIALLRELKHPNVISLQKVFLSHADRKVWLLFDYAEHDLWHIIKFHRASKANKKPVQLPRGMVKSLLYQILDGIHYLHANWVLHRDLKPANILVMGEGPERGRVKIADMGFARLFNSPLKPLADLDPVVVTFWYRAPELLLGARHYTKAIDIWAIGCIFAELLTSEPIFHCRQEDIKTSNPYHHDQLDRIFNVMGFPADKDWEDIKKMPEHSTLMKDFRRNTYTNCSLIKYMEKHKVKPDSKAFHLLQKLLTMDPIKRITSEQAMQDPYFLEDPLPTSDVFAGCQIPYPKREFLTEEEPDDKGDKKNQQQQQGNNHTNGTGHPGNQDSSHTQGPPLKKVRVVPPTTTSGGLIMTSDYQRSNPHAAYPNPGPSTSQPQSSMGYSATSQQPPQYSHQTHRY
Sequence of UniProt P29320 (whole entry, looked up): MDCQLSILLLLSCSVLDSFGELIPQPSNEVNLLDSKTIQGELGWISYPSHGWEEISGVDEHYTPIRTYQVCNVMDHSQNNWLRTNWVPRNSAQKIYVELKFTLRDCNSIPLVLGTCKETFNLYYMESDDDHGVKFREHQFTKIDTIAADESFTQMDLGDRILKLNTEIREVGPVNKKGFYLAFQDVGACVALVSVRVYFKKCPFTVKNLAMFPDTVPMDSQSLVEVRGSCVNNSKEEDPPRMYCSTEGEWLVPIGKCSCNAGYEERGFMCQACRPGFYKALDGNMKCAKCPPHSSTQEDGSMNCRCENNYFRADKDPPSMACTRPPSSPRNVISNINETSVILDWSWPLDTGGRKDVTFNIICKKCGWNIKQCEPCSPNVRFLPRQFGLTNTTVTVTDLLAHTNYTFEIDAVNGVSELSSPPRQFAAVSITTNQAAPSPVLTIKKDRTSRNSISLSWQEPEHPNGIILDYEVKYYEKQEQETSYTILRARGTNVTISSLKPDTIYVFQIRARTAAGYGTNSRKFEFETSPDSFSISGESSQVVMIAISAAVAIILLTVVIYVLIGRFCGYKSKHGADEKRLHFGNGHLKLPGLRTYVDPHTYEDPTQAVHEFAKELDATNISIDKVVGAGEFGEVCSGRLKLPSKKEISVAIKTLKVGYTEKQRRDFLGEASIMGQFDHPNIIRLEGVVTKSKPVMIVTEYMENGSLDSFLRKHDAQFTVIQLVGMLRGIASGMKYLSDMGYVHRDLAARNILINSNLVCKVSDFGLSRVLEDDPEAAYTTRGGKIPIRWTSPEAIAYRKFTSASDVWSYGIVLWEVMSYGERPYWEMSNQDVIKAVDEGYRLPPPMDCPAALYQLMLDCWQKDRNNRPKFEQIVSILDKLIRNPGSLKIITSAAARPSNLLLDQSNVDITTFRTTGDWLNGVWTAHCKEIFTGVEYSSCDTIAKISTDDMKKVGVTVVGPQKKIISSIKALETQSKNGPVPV
Sequence of UniProt Q00526 (whole entry, looked up): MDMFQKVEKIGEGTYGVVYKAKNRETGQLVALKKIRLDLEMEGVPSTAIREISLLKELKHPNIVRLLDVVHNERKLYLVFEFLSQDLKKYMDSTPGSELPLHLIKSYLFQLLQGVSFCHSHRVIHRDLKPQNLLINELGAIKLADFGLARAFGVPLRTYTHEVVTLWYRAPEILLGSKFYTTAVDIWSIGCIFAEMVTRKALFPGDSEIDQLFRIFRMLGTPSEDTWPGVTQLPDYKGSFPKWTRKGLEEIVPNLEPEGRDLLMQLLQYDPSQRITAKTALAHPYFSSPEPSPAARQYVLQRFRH
Sequence of UniProt P07949 (whole entry, unmodified, looked up): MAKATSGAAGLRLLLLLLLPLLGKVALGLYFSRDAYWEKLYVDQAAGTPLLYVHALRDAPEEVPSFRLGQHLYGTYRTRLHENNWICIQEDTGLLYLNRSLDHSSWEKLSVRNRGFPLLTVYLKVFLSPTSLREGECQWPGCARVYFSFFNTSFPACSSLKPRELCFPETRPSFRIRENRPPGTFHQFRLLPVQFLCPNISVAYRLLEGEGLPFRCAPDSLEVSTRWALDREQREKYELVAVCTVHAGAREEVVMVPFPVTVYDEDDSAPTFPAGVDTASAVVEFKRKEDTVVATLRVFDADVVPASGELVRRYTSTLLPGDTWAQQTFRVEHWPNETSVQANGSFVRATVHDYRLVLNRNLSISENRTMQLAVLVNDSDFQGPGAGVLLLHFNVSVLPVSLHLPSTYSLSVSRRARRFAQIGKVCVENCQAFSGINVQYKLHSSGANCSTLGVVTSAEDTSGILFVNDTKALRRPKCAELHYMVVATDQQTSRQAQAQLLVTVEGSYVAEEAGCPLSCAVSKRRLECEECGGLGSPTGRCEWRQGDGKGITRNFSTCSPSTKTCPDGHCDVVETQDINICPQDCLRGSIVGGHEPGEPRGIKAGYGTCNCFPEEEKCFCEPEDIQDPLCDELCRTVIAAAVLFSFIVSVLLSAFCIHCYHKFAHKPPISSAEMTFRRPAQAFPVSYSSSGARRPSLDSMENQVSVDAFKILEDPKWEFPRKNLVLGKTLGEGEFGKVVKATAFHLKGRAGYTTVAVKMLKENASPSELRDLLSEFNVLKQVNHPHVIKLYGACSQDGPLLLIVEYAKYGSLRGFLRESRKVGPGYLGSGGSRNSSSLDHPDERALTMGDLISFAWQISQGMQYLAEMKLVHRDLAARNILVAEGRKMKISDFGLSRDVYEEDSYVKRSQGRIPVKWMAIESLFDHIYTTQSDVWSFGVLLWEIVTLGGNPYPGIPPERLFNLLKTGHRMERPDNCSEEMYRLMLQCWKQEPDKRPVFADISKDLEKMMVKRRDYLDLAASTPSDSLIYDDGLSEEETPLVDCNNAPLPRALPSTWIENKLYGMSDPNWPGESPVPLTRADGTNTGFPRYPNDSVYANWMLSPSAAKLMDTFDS

Block 1
Cell line: A-375
Tested at: 100 µM
Time: 36 h
With `CCOc1nc2cccc(C(=O)O)c2n1Cc1ccc(-c2ccccc2-c2nnn[nH]2)cc1` the viability was 109%.
With `c1ccc(C2CN3CCSC3=N2)cc1` (stereo not drawn) the viability was 95.7%.
With `Nc1c(CC(=O)O)cccc1C(=O)c1ccccc1` the viability was 103%.
`CCC(C)(Oc1ccc(C2(c3ccc(OC(C)(CC)C(=O)O)cc3)CCCCC2)cc1)C(=O)O` (stereo not drawn) gave a viability of 95.6%.
`COc1ccc(-c2cc(=O)c3c(O)cc(O[C@@H]4O[C@H](CO[C@@H]5O[C@@H](C)[C@H](O)[C@@H](O)[C@H]5O)[C@@H](O)[C@H](O)[C@H]4O)cc3o2)cc1O` has a viability of 114%.
The viability of `CC(=O)OCC(=O)[C@@]1(O)CC[C@H]2[C@@H]3CCC4=CC(=O)CC[C@]4(C)[C@@]3(F)[C@@H](O)C[C@@]21C` is reported as 105%.
With `CCc1nc(N)nc(N)c1-c1ccc(Cl)cc1` the viability was 46.4%.
For `CC(C)(C)c1ccc(C(O)CCCN2CCC(C(O)(c3ccccc3)c3ccccc3)CC2)cc1` (stereo not drawn), the viability was 1.74%.
`CCC(=O)c1c(O)cc(O)cc1O` has a viability of 107%.

Block 2
Compound: CN([C@@H]1CCc2c(CC(=O)O)c3ccccc3n2C1)S(=O)(=O)c1ccc(F)cc1
Read-out: cell-free assay
Technique: competition with immobilised ligand
Tested at: 1 µM
It gave 95% for remaining binding (Ephrin type-A receptor 3 (EPHA3, Homo sapiens, UniProt P29320)).
Cyclin-dependent kinase 8 (CDK8, Homo sapiens, UniProt P49336) — remaining binding: 100%.
It gave 100% for remaining binding (Receptor tyrosine-protein kinase erbB-2 (ERBB2, Homo sapiens, UniProt P04626)).
It gave 100% for remaining binding (Cyclin-dependent kinase 3 (CDK3, Homo sapiens, UniProt Q00526)).
The remaining binding was 93% (Macrophage-stimulating protein receptor (MST1R, Homo sapiens, UniProt Q04912)).
The remaining binding was 99% (Proto-oncogene tyrosine-protein kinase receptor Ret (RET, Homo sapiens, UniProt P07949, V804L)).
For 3-phosphoinositide-dependent protein kinase 1 (PDPK1, Homo sapiens, UniProt O15530): remaining binding read 100%.

Block 3
Target: Ribosomal protein S6 kinase beta-1 (RPS6KB1, Homo sapiens, UniProt P23443)
Sequence of UniProt P23443 (whole entry, looked up): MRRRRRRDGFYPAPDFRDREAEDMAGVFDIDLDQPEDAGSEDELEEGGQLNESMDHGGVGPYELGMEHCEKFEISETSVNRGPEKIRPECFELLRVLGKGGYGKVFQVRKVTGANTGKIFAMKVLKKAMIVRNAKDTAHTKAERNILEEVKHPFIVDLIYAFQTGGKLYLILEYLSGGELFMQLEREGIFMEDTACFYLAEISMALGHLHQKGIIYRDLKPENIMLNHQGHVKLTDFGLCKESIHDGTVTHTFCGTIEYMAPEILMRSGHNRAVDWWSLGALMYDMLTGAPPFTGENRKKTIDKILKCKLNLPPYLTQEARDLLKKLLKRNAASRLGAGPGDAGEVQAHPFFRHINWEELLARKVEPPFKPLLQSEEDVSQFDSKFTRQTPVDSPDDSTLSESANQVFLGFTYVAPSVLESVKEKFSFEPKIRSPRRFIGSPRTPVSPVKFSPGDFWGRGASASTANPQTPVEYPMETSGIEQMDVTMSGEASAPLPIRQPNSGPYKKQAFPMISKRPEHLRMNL
Read-out: enzyme activity
Mode: inhibitor
Tested at: 0.5 µM
Reference: control
The remaining activity of `COc1cc2ncnc(Nc3ccc(F)c(Cl)c3)c2cc1OCCCN1CCOCC1` is reported as 93.9%.
The remaining activity of `COc1ccc(C(=O)Nc2sc3c(c2C(N)=O)CCCC3)cc1OC` is reported as 84.3%.
`O=C1NC(=O)C(c2cn(CCCO)c3ncccc23)=C1c1cnccn1` has a remaining activity of 90.2%.
The remaining activity of `Nc1ncnc2n[nH]c(Nc3ccc(F)cc3)c12` is reported as 94.3%.
With `CCOC(=O)c1c(C)[nH]c(/C=C2\C(=O)Nc3ccccc32)c1C` the remaining activity was 85.7%.
With `Nc1[nH]nc2nc3ccccc3nc12` the remaining activity was 99.8%.
With `NCCNc1ncc(C(N)=O)c(Nc2cccc(C(F)(F)F)c2)n1` the remaining activity was 87.5%.
With `O=c1c2ccccc2[nH]c(=S)n1CCN1CCC(=C(c2ccc(F)cc2)c2ccc(F)cc2)CC1` the remaining activity was 97.9%.
With `O=C(CCCc1ccc(-c2ccccc2F)cc1)Nc1ccc(O)cc1` the remaining activity was 102%.
`COc1ccc(CNC(=O)Nc2ncc([N+](=O)[O-])s2)cc1` gave a remaining activity of 85.4%.
The remaining activity of `CC(C)[C@H](CO)Nc1nc(Nc2cc(N)cc(Cl)c2)c2ncn(C(C)C)c2n1` is reported as 95.5%.
`Oc1ccc(-c2nc(-c3ccncc3)c(-c3ccc(F)cc3)[nH]2)cc1` gave a remaining activity of 87.8%.
`Nc1ccc2ncnc(NCCc3ccc(Oc4ccccc4)cc3)c2c1` gave a remaining activity of 99.5%.
For `OCC(O)CCON=C1C(c2c(O)[nH]c3ccccc23)=Nc2ccccc21` (stereo not drawn), the remaining activity was 47.8%.

Block 4
Species: human
Sample: microsomes or S9
Tested at: 2 µM
Time: 0.5 h
With `O=C1CC(C2CCCCC2)c2cnn(Cc3cccs3)c2N1` (stereo not drawn) the remaining compound was 6.81%.
For `COCCOc1cc(=O)n2c(c1C(=O)N1CCCC1)CCOCC2`, the remaining compound was > 99%.
`c1ccc(-c2csc(Oc3ccncc3)n2)cc1` has a remaining compound of 57.7%.
The remaining compound of `CCCN(C(=O)c1cc(S(=O)(=O)N2CCc3ccccc32)cn1C)c1ccccc1OC` is reported as < 1%.
For `Cn1c(=O)c(O)c(C(=O)NCc2cccc(F)c2)c(=O)n1C`, the remaining compound was > 99%.
`Cc1nnc(C)n1/N=C/c1ccc(OCC(N)=O)cc1` has a remaining compound of 91.8%.

Excerpt of the above (block 3):
With `Nc1[nH]nc2nc3ccccc3nc12` the remaining activity was 99.8%.
With `O=c1c2ccccc2[nH]c(=S)n1CCN1CCC(=C(c2ccc(F)cc2)c2ccc(F)cc2)CC1` the remaining activity was 97.9%.
`COc1ccc(CNC(=O)Nc2ncc([N+](=O)[O-])s2)cc1` gave a remaining activity of 85.4%.
With `NCCNc1ncc(C(N)=O)c(Nc2cccc(C(F)(F)F)c2)n1` the remaining activity was 87.5%.
